Published values from different studies.
Each numbered part is a random draw from the data of one study; scales do not carry over between parts.

Set 1
Target: Ras GTPase-activating protein-binding protein 1, RRM domain (G3BP1, Homo sapiens, UniProt Q13283)
Sequence of UniProt Q13283 (whole entry, looked up): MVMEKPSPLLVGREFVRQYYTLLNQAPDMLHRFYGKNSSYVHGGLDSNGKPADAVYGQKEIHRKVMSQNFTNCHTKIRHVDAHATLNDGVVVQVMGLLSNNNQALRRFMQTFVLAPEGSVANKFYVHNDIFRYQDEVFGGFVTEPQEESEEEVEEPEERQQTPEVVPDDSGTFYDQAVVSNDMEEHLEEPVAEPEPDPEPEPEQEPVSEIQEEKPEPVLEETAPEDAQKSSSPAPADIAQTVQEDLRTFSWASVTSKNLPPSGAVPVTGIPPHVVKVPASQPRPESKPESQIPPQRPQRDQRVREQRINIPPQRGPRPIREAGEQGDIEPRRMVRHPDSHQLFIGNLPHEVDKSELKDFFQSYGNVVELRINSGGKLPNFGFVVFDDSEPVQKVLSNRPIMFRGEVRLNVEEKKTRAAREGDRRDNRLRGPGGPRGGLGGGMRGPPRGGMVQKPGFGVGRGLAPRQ
Method: RNA Bind-n-Seq
Molecule type: RNA
Sample: in vitro
Concentration: 1 µM
Setting: whole 134-nt RNA, ends assumed
Together with: 150 mM KCl
Reference: input library
Direction: higher = stronger binding
Quantity: log2 enrichment
Constant ends, left off below: GGGAGUUCUACAGUCCGACGAUC … UGGAAUUCUCGGGUGUCAAGG
AAGUCCUGUGCUACACAUCGUAUGUACCGAAUCGGGUUUGGGGUUUGGGUUUGGGGAAAGUAUUAUGUUACGCCGUUCGGAUCUGCACUU: 0.612
AAGUCCUGUGCUACACAUCGUAUGUACCGAAUCGGGGAAAGGGAAAGGGGAAAGGGAAAGUAUUAUGUUACGCCGUUCGGAUCUGCACUU: 0.358
AGUCCUGUGCUACACAUCGUAUGUACCGAAUCGGGUUUGGGUUUUUUUGGGUUUGGGAAAGUAUUAUGUUACGCCGUUCGGAUCUGCACU: 0.375
AGUCCUGUGCUACACAUCGUAUGUACCGAAUCGGGGAGGGGUUUUUUUGGGGUGGGGAAAGUAUUAUGUUACGCCGUUCGGAUCUGCACU: 0.563
UAACUUUAGAGGAGGAUCUGAUGGAUAUGGCAGUGGACGUGGAUUUGGGGAUGGCUAUAAUGGGCAUGGAGGAGGACCUGGAGGUGGCAA: -0.509

Set 2
Target: RNA binding protein fox-1 homolog 2, RRM domain, GST-SBP tag (RBFOX2, Homo sapiens, UniProt O43251-10, residues 100-194)
Method: RNA Bind-n-Seq
Molecule type: RNA
Sample: in vitro
Concentration: 365 nM
Setting: natural RNA segment, single round, ends assumed
Reference: no-protein control
Direction: higher = stronger binding
Quantity: RBNS enrichment (R)
Constant ends, left off below: GGGAGUUCUACAGUCCGACGAUC … UGGAAUUCUCGGGUGCCAA
Residues (chain): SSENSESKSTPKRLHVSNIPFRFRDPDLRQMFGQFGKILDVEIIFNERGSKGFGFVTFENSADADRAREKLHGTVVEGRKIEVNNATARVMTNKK
AAUUAUUUUAUAUGACCUAUAAAUUUAAAAAUGUUUUUCAGUGAGUGCUUUUAACAAACUUAAGCUUCUGCCCUGCCAAGGGAAUUAAUGUUAUCUUGUGAAAGGUGUUG: 0.346
UAUGGAUGCAAGCAGGAGAAGCUCAACACCCUGCCUCUUGCCAAGACAAGGAAGCCUCACCUGGCUUUGACCUGCCAUCCGUUGCUGAGGCCACUGGCUUCCAUCCUAAG: 0.284
AAAGUUUAAAGAUGUCUUCAAAGAAGACUAGAGUCUUUAAGUCACUUAUAGCUAUAUUUUACUACAAAAUUUGUGUAUAAAGAUAUAUUUAAGUGUUUUAGAUAAAUUUA: 0.785
UGCCCCUCACCCCCUGAAAAGCUGACUCACUGUGAGUGACCUUGGGCAAGUCCCCAAACCUCCUUGUGCCUCAGUUUCCCCAUCUGGAAAAAAUGGGGCCACCUCUUGCC: 0.388
GUGAUAGACAGGGACCCCUUCUACUGAACCUUUGAGGAAAGGAGGAAGGAAGAAAUGCGUUUAGAUCUUGGAUGCAGACCUUUCAAAGGGUUAAAUGUAACCAUAUGGAU: 0.338
GGUGGGAGGCUCUGCUUCCUGCUGCCGCUCUGCAGCCUGGACCUGUGGACCCUGGUUGUAAAGAGUAAAUUGUAUCUUAGGAAACCAGUGUCACCUUUUUUUCACCUUUU: 0.287
ACACAUAUGCAAUGUUUUAAGGUCUGUCUUAAGAAGCUUUGGCCAAAUUGGGAUCCUAACCUAAGAUGCCUUAAACUUAUUAACAUGACCAUUAUAAGAAAAGAUAUAUG: 0.325
UAUCUCUUGGGACAACUUUUAAAAGCUAUUUUUACCAAGUAUUUUGUAAAUGCUAAUUUUUUAGGACUCUACUAGUUGGCAUACGAAAAUAUAUAAGGAUGGACAUUUUA: 0.418

Set 3
Target: Replicase polyprotein 1ab, nsp13 helicase (rep, Severe acute respiratory syndrome coronavirus 2, UniProt P0DTD1)
Mode: inhibitor
Concentration: 20 µM
Quantity: inhibition
O=C(OCCN1CCCCC1)c1c[nH]c2ccccc12: 4.63%
COc1nc(N)nc2c1ncn2[C@@H]1O[C@H](CO)[C@@H](O)[C@@H]1O: 3.88%
Cc1ccc(CC2(O)CCN(CCOc3ccc(O)cc3)CC2)cc1: 4.9%
Nc1ncnc2c1C(=O)N(c1ccc([C@H]3CC[C@H](CC(=O)O)CC3)cc1)CCO2: 7.12%
C[C@H]1CN(C[C@H](Cc2ccccc2)C(=O)NCC(=O)O)CC[C@@]1(C)c1cccc(O)c1: -0.49%
CCn1c(-c2nonc2N)nc2cncc(C(=O)N3CC[C@H](N)C3)c21: 1.59%
CC[C@@H]1C(=O)N(C)c2cnc(Nc3ccc(C(=O)N[C@H]4CC[C@H](N5CCN(CC6CC6)CC5)CC4)cc3OC)nc2N1C(C)C: 14.5%
CC(=O)OCC(=O)[C@@]1(O)CC[C@H]2[C@@H]3CCC4=CC(=O)C=C[C@]4(C)[C@@]3(Cl)[C@@H](Cl)C[C@@]21C: 5.23%
CC(=O)Oc1ccc(C(c2ccc(OC(C)=O)cc2)c2ccccn2)cc1: 2.89%
C=CC[C@]1(O)CC[C@H]2[C@@H]3CCC4=CCCC[C@@H]4[C@H]3CC[C@@]21C: 2.08%
Cn1nnc2c(C(N)=O)ncn2c1=O: 1.59%
C[C@@H](N)c1ccc(C(=O)Nc2ccnc3[nH]ccc23)cc1: 7.7%
CCCN(CCC)C(=O)C1=Cc2ccc(-c3ccc(C(=O)N4CCCC4)cc3)cc2N=C(N)C1: 7.44%
COC(=O)N[C@H](C(=O)N[C@@H](Cc1ccccc1)[C@@H](O)CN(Cc1ccc(-c2ccccn2)cc1)NC(=O)[C@@H](NC(=O)OC)C(C)(C)C)C(C)(C)C: 4.46%
C#CC1(OCC(O)CN2CCN(c3cccc(C(F)(F)F)c3)CC2)CCCCC1 (stereo not shown): 9.98%
O=C(NOCCO)c1ccc2cncn2c1Nc1ccc(I)cc1F: 2.03%
Cc1cccc(C)c1NC(=O)CN1CCCCCC1: -0.28%
CCN(CC)CCOC(=O)c1ccc(N)cc1: 4.31%
N#CC(c1ccnc(OCc2ccc(CN3CCOCC3)cc2)n1)c1nc2ccccc2s1 (stereo not shown): 12%
COc1ccc2cc(-c3cc(-c4cc(Cl)cc(Cl)c4)nn3[C@@H](C)c3ccc(C(=O)NCCC(=O)O)cc3)ccc2c1: 2.5%
c1ccc(C2CC2)c(OCC2=NCCN2)c1: 1.53%
O=S(=O)(N[C@H]1CC[C@@](c2cc(F)ccc2F)(S(=O)(=O)c2ccc(Cl)cc2)CC1)C(F)(F)F: 0.41%
CCNC(C)CN1CCc2c(c(=O)oc3ccccc23)C1 (stereo not shown): 9.12%
COc1ccc(-c2coc3cc(O)cc(O)c3c2=O)cc1: -0.4%
CC1(C)S[C@@H]2[C@H](NC(=O)Cc3ccccc3)C(=O)N2[C@H]1C(=O)O: -4.34%

Set 4
Target: Replicase polyprotein 1ab, main protease (rep, Severe acute respiratory syndrome coronavirus 2, UniProt P0DTD1)
Observed: enzyme activity
Mode: inhibitor
Quantity: IC50
Nc1c[n+](N2CCOCC2)no1: > 20 µM
CNC[C@H](O)c1ccc(O)c(O)c1: > 20 µM
CN1CCN(C(=O)c2ccc(-c3ccc4c(C=O)c(O)ccc4c3)s2)CC1: > 20 µM

Set 5
Organism: Vesicular stomatitis virus
Observed: pseudovirus infection
Method: FDA-approved drug library screen
Concentration: concentration not given
Setting: SARS-CoV-2 spike pseudotype
Reference: vehicle
Quantity: GFP-positive cells
CNC(=C[N+](=O)[O-])NCCSCc1ccc(CN(C)C)o1.Cl: 80.6%
COc1nc2ccc(Br)cc2cc1[C@@H](c1ccccc1)[C@@](O)(CCN(C)C)c1cccc2ccccc12: 48.9%
Cc1nc2n(c(=O)c1CCN1CCC(c3noc4cc(F)ccc34)CC1)CCCC2: 108%

Set 6
Target: Sal-like protein 4, full length isoform A (SALL4, Homo sapiens, UniProt Q9UJQ4, residues 1-1053)
Sequence of UniProt Q9UJQ4 (whole entry, looked up): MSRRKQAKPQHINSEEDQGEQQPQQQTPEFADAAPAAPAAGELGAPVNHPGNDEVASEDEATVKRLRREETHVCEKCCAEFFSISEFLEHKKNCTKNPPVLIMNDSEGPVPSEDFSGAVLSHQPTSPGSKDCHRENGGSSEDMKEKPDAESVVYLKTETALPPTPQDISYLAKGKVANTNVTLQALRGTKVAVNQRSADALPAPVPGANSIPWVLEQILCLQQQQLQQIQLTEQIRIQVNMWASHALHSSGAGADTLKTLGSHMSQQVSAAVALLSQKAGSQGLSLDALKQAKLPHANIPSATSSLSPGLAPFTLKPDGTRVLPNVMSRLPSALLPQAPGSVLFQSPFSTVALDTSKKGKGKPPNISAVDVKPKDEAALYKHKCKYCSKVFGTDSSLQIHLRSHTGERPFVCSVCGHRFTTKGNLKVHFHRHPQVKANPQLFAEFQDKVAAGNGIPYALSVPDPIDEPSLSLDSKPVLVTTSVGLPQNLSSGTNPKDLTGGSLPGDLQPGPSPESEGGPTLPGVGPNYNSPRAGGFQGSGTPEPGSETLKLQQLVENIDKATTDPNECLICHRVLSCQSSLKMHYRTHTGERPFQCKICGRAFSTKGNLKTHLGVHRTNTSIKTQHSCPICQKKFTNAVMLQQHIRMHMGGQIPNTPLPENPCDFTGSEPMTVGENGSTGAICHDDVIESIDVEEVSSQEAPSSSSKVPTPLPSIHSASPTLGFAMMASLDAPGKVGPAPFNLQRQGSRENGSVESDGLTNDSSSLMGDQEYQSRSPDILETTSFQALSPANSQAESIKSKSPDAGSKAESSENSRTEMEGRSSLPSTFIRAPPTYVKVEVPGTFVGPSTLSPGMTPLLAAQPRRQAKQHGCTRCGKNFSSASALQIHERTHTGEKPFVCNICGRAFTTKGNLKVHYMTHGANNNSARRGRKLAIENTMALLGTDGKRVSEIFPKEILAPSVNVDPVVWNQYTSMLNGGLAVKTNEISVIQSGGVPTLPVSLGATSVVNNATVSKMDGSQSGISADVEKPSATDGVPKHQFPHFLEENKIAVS
Method: universal PBM
Molecule type: double-stranded DNA, one strand shown
Sample: in vitro
Concentration: 600 nM
Setting: 8-mer, flanks averaged, mean of replicates
Direction: higher = stronger binding
Quantity: E-score
AGTACACC: -0.0145
AGTTTAGA: 0.201
ACCGACCC: -0.251
CACTATCC: -0.0471
ACCAATCT: 0.0181
AATCTAGA: 0.167
GCGCTCTA: -0.126
GTGTAAAC: 0.104
